Earlier results as cited in several papers.
Each numbered part shows a few of the values that one paper quotes.
Sequence of UniProt Q9PHN5 (whole entry, looked up): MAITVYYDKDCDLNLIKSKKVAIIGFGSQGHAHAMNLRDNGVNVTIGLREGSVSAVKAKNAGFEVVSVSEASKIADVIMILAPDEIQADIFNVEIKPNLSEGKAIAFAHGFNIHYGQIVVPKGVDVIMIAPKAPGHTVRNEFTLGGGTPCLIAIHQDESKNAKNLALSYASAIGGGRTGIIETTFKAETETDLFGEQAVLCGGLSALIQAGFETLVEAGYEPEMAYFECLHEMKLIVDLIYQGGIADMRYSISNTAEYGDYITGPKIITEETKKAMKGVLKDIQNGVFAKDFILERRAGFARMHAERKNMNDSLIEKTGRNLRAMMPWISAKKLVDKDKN

Block 1 — organism: Cryptosporidium parvum; technique: high-throughput screen; concentration: concentration not given; quantity: activity
CN(C)C(=O)Oc1ccc[n+](C)c1: inactive
CC(C)(O)c1ccccc1CC[C@@H](SCC1(CC(=O)O)CC1)c1cccc(/C=C/c2ccc3ccc(Cl)cc3n2)c1: inactive
CNCCCN1c2ccccc2CCc2ccccc21: inactive
Nc1nc2c(ncn2COCCO)c(=O)[nH]1: inactive
CCn1cc(C(=O)O)c(=O)c2ccc(C)nc21: inactive
CN1CCC(=C2c3ccccc3CC(=O)c3sccc32)CC1: inactive
Cc1ncc([N+](=O)[O-])n1CC(C)O (centres unmarked): inactive
C=C1/C(=C\C=C2/CCC[C@]3(C)[C@@H]([C@H](C)/C=C/[C@@H](O)C4CC4)CC[C@@H]23)C[C@@H](O)C[C@@H]1O: inactive
O=C1NC(=O)C(c2ccccc2)(c2ccccc2)N1: inactive
CC(=O)OCC(=O)[C@@]1(O)CC[C@H]2[C@@H]3CCC4=CC(=O)CC[C@]4(C)[C@H]3[C@@H](O)C[C@@]21C: inactive
O=C(O)C[C@H](O)C[C@H](O)/C=C/c1c(C2CC2)nc2ccccc2c1-c1ccc(F)cc1: inactive
CC(Oc1c(Cl)cccc1Cl)C1=NCCN1 (centres unmarked): inactive
CC(=O)[C@H]1CC[C@H]2[C@@H]3C[C@H](C)C4=CC(=O)CC[C@]4(C)[C@H]3[C@@H](O)C[C@]12C: inactive
CCOC(=O)[C@H](CCc1ccccc1)N[C@@H](C)C(=O)N1[C@H](C(=O)O)C[C@@H]2CCC[C@@H]21: inactive
CC(CCc1ccccc1)NCC(O)c1ccc(O)c(C(N)=O)c1 (centres unmarked): inactive
CC[N+](C)(CC)CCOC(=O)C(O)(c1ccccc1)C1CCCCC1 (centres unmarked): inactive
Cl.O.O=C1N(c2ccccc2)c2ccccc2C1(Cc1ccncc1)Cc1ccncc1: inactive
COc1ccnc(C[S+]([O-])c2nc3ccc(OC(F)F)cc3[nH]2)c1OC (centres unmarked): inactive
CC(=O)OCC(=O)NCCCOc1cccc(CN2CCCCC2)c1: inactive
CN1CCN(C2=Nc3cc(Cl)ccc3Nc3ccccc32)CC1: inactive
COc1ccc(-c2cc(=O)c3c(OC)c(OC)c(OC)c(OC)c3o2)cc1OC: inactive
CN[C@@H]1[C@H](O)[C@H](NC)[C@H]2O[C@@]3(O)C(=O)C[C@@H](C)O[C@H]3O[C@@H]2[C@H]1O.Cl.Cl: inactive
CC1(C)S[C@@H]2[C@H](NC(=O)COc3ccccc3)C(=O)N2[C@H]1C(=O)O: inactive
CC(C)C(=O)Nc1ccc([N+](=O)[O-])c(C(F)(F)F)c1: inactive
CCCc1c(OCCCCc2nnn[nH]2)ccc(C(C)=O)c1O: inactive

Block 2 — SMILES: CN(C)CC/C=C1/c2ccccc2Sc2ccc(Cl)cc21; cell line: MCF7; technique: microarray; concentration: concentration not given; reference: DMSO; quantity: log2 fold change
refers to: ZNF292 mRNA: 1.32
refers to: TES mRNA: 2.18
refers to: SLC7A11 mRNA: 1.84

Mixed results
Urea transporter 1: Urea transporter 1 (Homo sapiens, UniProt Q13336)
Sequence of UniProt Q13336 (whole entry, looked up): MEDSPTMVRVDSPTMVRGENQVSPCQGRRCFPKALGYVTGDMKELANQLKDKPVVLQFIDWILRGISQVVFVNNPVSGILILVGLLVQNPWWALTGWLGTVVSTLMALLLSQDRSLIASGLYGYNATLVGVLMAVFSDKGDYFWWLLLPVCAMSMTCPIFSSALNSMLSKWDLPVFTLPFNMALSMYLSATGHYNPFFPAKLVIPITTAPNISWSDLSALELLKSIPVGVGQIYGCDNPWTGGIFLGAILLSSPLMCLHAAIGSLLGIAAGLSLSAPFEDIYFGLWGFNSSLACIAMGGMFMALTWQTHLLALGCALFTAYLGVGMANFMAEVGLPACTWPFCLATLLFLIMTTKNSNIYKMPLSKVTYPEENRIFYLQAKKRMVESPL
O=C(CCc1ccc(O)cc1)c1c(O)cc(O)cc1O — urea permeability (Urea transporter 1; inhibitor): inhibited
CC(=O)N[C@@H](CC(N)=O)C(=O)N[C@@H](CC(C)C)C(=O)N[C@]1(C)CCCCCCC=CCCC[C@@](C)(C(=O)N[C@@H](CCC(=O)O)C(=O)N[C@@H](CC(C)C)C(=O)N[C@@H](CC(N)=O)C(N)=O)NC(=O)[C@H](CC(C)C)NC(=O)[C@H](CC(C)C)NC(=O)[C@H](CCCNC(=N)N)NC(=O)[C@H](CC(=O)O)NC(=O)[C@H](CC(C)C)NC(=O)[C@H](CCC(=O)O)NC1=O — Kd (focal adhesion kinase FAT domain; binding): 800 nM
Cc1ccc(C(=O)c2cc(O)c(O)c([N+](=O)[O-])c2)cc1 — therapeutic concentration (human): 21 µM
COc1c(C)c2c(c(O)c1C/C=C(\C)CCC(=O)OCCN1CCOCC1)C(=O)OC2 — Cmax (human, plasma; concentration not given, total plasma concentration): 57 µM
CC1=NN(c2ccc(C)c(C)c2)C(=O)/C1=N\Nc1cccc(-c2cccc(C(=O)O)c2)c1O — IC50 (BCRP; inhibitor): 2700 nM
O=[N+]([O-])c1ccc(O)c2ncccc12 — MBEC (Staphylococcus aureus; biofilm eradication; MRSA BAA-1707): 93.8 µM
COc1ccccc1Oc1c(NS(=O)(=O)c2ccc(C(C)(C)C)cc2)nc(-c2ncccn2)nc1OCCO — volume of distribution at steady state (human; dose not given): 0.16 L/kg
O=C([O-])CC[C@H](NC(=O)N[C@@H](CCCCNC(=O)CCCCCCC(=O)NCCCC[C@@H](NC(=O)[C@@H](Cc1ccccc1)NC(=O)[C@@H](Cc1ccc(O)c(I)c1)NC(=O)CC[C@H](C(=O)[O-])N1CCN(CC(=O)[O-])CCN(CC(=O)[O-])CCN(CC(=O)[O-])CC1)C(=O)[O-])C(=O)[O-])C(=O)[O-].[177Lu+3].[H+].[H+].[H+].[H+].[H+] — kidney absorbed dose (human patients): 0.73 Gy/GBq
O[C@]1(C(F)(F)F)CCCC[C@H]1Nc1ccc(F)cc1 — Ki (PGR; binding, radioligand binding Eurofins-Panlabs): 0.004 mM
O=C(c1cccnc1-c1ccncc1)N1CCC(O)(Cc2ccccc2)CC1 — IC50 (human cholesterol 24-hydroxylase; enzyme activity, inhibitor): 4.5 nM
Cc1nccn1CC1CCc2c(c3ccccc3n2C)C1=O (centres unmarked) — IC50 (dopamine transporter): > 10000 nM
CO[C@H]1[C@H](O[C@H]([C@H]2O[C@@H](n3ccc(=O)[nH]c3=O)[C@H](O)[C@@H]2O)[C@H](NCCCNC(=O)[C@@H](NC(=O)[C@@H](NC(=O)N[C@H](C(=O)O)C(C)C)[C@@H]2CCN=C(N)N2)[C@@H](OC(=O)CCCCCCCCCCCCN(O)C(=N)N)C(C)C)C(=O)O)O[C@H](CN)[C@H]1O — ED50 (Staphylococcus aureus; mouse infection model): 1.1 mg/kg
COc1cc2ccc(=O)oc2c(O)c1OC — IC50 (HeLa; cell growth): 39.9 µg/mL
NC(N)=O — Ki (Urea transporter 1; thiourea exchange; 0 °C): 100 mM
CN(C)CC#Cc1ccc(OCCCc2sc(N3CCc4cccc(C(=O)Nc5nc6ccccc6s5)c4C3)nc2C(=O)O)c(F)c1 — EC50 (BCL2L1; cell-based): 70 nM
Cc1cn[nH]c1 — Cmax (human, plasma; concentration not given, total plasma concentration): 210 µM
C1Cc2[nH]nc(-c3nnn[nH]3)c2C1 — plasma lipid levels (refers to: HDL, LDL cholesterol, triglycerides; human phase II trial; dose not given): no effect
CC(C)c1nc(N(C)S(C)(=O)=O)nc(-c2ccc(F)cc2)c1/C=C/[C@@H](O)C[C@@H](O)CC(=O)O — AUCinf increase (BCRP; human; oral, 10 mg, together with: eltrombopag 75 mg oral; reference: eltrombopag alone): 55%
[Ca] — EC50 (KCa2 channels; ion current, activator): ~600 nM
Cc1ccc(NC(=O)c2ccc(CN3CCN(C)CC3)cc2)cc1Nc1nccc(-c2cncc(-c3oncc3C)c2)n1 — AUC(0-inf) (mouse; 50 mg/kg/day, steady state): 19600 ng·h/mL
COc1cc(N[C@@H]2CCCC[C@]2(O)C(F)(F)F)ccc1F — IC50 (TRPA1; biochemical): > 25000 nM
O=c1[nH]c2nc(-c3ccccc3)sc2c(=O)n1O — koff (Ketol-acid reductoisomerase (NADP(+)) (ilvC, Campylobacter jejuni subsp. jejuni serotype O:2, UniProt Q9PHN5)): 6e-05 s⁻¹

Excerpt of the above (mixed results):
COc1cc2ccc(=O)oc2c(O)c1OC — IC50 (HeLa; cell growth): 39.9 µg/mL
NC(N)=O — Ki (Urea transporter 1; thiourea exchange; 0 °C): 100 mM
CN(C)CC#Cc1ccc(OCCCc2sc(N3CCc4cccc(C(=O)Nc5nc6ccccc6s5)c4C3)nc2C(=O)O)c(F)c1 — EC50 (BCL2L1; cell-based): 70 nM
Cc1cn[nH]c1 — Cmax (human, plasma; concentration not given, total plasma concentration): 210 µM
C1Cc2[nH]nc(-c3nnn[nH]3)c2C1 — plasma lipid levels (refers to: HDL, LDL cholesterol, triglycerides; human phase II trial; dose not given): no effect
